Assay results pooled from the literature.
Each line is one published result; not all experiments were run side by side.
Organism: Staphylococcus aureus

SMILES | assay | test system | conditions | MIC
C=C1NC(=O)C2CSCC3NC(=O)C(CSC(C)C(NC(=S)C(Cc4cnc[nH]4)NC(=O)c4csc(C(C)NC(C)=O)n4)C(=O)N[C@H](CC(C)C(=O)NC(=O)CC(C(=O)O)NC(=O)C(C)NC3=O)C(=O)N2)NC(=O)[C@@H]2CCCN2C(=O)[C@@H](CC(C)C)NC1=O (stereo partly drawn) | bacterial growth | ATCC 29213 | – | > 32 µg/mL
CC(C)[C@H](NC(=O)CNC(=O)CNC(=O)[C@H](Cc1ccc(O)cc1)NC(=O)[C@H](CS)NC(=O)[C@@H](NC(=O)[C@H](Cc1c[nH]c2ccccc12)NC(=O)[C@H](Cc1ccccc1)NC(=O)[C@H](CS)NC(=O)[C@H](Cc1c[nH]c2ccccc12)NC(=O)[C@@H](N)CCCNC(=N)N)C(C)C)C(=O)N[C@@H](CS)C(=O)N[C@@H](Cc1ccc(O)cc1)C(=O)N[C@@H](CCCNC(=N)N)C(=O)N[C@@H](CCCNC(=N)N)C(=O)N[C@@H](CS)C(=O)N[C@@H](CCCNC(=N)N)C(=O)O | broth microdilution | ATCC 25923, Mueller-Hinton broth | 16 to 20 h, 37 °C | 1.1 µg/mL
c1ccc(CN2CCOCCOCCN(CCCCCCCCCCCCCCN3CCOCCOCCN(CCCCCCCCCCCCCCN4CCOCCOCCN(Cc5ccccc5)CCOCCOCC4)CCOCCOCC3)CCOCCOCC2)cc1 | – | 1199B (NorA overexpressing) | – | ≤ 1 µM
CN[C@H](CC(C)C)C(=O)N[C@H]1C(=O)N[C@@H](CC(N)=O)C(=O)N[C@H]2C(=O)N[C@H]3C(=O)N[C@H](C(=O)N[C@H](C(=O)NCC(N)=O)c4cc(O)cc(O)c4-c4cc3ccc4O)[C@H](O)c3ccc(c(Cl)c3)Oc3cc2cc(c3O[C@@H]2O[C@H](CO)[C@@H](O)[C@H](O)[C@H]2O[C@H]2C[C@](C)(NCc3ccc(OCc4cn(CC(=O)N[C@H](C(=O)N[C@@H](CCN)C(=O)N[C@H]5CCNC(=O)[C@H]([C@@H](C)O)NC(=O)[C@H](CCN)NC(=O)[C@H](CCN)NC(=O)[C@H](CC(C)C)NC(=O)[C@@H](CC(C)C)NC(=O)[C@H](CCN)NC5=O)[C@@H](C)O)nn4)c(OC)c3)[C@H](O)[C@H](C)O2)Oc2ccc(cc2Cl)[C@H]1O | – | MSSA ATCC 29213 | – | 0.093 µM
CC[C@H](C)[C@H](NC(=O)[C@@H](CCCNC(=N)N)NC(=O)[C@H](CCCNC(=N)N)NC(=O)[C@@H]1CCCN1C(=O)[C@@H]1CCCN1C(=O)[C@H](CCCNC(=N)N)NC(=O)[C@@H]1CCCN1C(=O)[C@H](CCCNC(=N)N)NC(=O)[C@@H]1CCCN1C(=O)[C@@H](NC(=O)[C@H](Cc1ccc(O)cc1)NC(=O)[C@@H]1CCCN1C(=O)[C@@H]1CCCN1C(=O)[C@H](CCCCN)NC(=O)[C@H](CC(=O)O)NC(=O)[C@@H](N)C(C)C)C(C)(C)C)C(=O)N[C@@H](Cc1ccc(O)cc1)C(=O)N[C@@H](CC(N)=O)C(=O)N[C@H](CCCNC(=N)N)C(N)=O | broth microdilution | DSM 6247 | 18 h, 37 °C, 25% MHB2 | > 128 µg/mL
COc1ccc2ccc(O)c(/C=N/[C@H]3CCCC[C@H]3/N=C/c3ccc(C)cc3O)c2c1 | bacterial growth, broth microdilution | vancomycin-intermediate | – | > 40 µM
CCCCCCCC[C@@H]1NC(=O)[C@@H](CCCN)NC(=O)[C@@H](NC(=O)[C@@H](NC(=O)[C@@H](CCC(=O)O)NC(=O)[C@H](CC(C)C)NC(=O)[C@@H]2CSC([C@@H](N)[C@@H](C)CC)=N2)[C@@H](C)CC)CCCCNC(=O)[C@H](CC(N)=O)NC(=O)[C@@H](CC(=O)O)NC(=O)[C@H](Cc2c[nH]cn2)NC(=O)[C@@H](Cc2ccccc2)NC1=O | – | ATCC 29213 MSSA | LB without zinc | 0.5 µg/mL
CN[C@H](CC(C)C)C(=O)N[C@H]1C(=O)N[C@@H](CC(N)=O)C(=O)N[C@H]2C(=O)N[C@H]3C(=O)N[C@H](C(=O)N[C@H](C(=O)N[C@@H](CCCNC(=N)N)C(N)=O)c4cc(O)cc(O)c4-c4cc3ccc4O)[C@H](O)c3ccc(c(Cl)c3)Oc3cc2cc(c3O[C@@H]2O[C@H](CO)[C@@H](O)[C@H](O)[C@H]2O[C@H]2C[C@](C)(NCc3ccc(OCc4cn(CC(=O)N[C@H](C(=O)N[C@@H](CCN)C(=O)N[C@H]5CCNC(=O)[C@H]([C@@H](C)O)NC(=O)[C@H](CCN)NC(=O)[C@H](CCN)NC(=O)[C@H](CC(C)C)NC(=O)[C@@H](CC(C)C)NC(=O)[C@H](CCN)NC5=O)[C@@H](C)O)nn4)c(OC)c3)[C@H](O)[C@H](C)O2)Oc2ccc(cc2Cl)[C@H]1O | – | VRSA 2 vanA | – | > 46 µM
CC1CCN(C(=O)c2cccc(NC(=O)NC3CCCCC3)c2)CC1 | checkerboard, refers to: ceftobiprole | CRB, PBP4 overexpressor | 25 µM | > 64 µg/mL
N=C(N)NCCC[C@@H]1NC(=O)[C@H](CCCNC(=N)N)NC(=O)[C@@H](CCCNC(=N)N)NC(=O)[C@@H](CCCNC(=N)N)NC(=O)[C@@H](C(c2ccccc2)c2ccccc2)NC(=O)[C@H](Cc2c[nH]c3ccccc23)NC(=O)[C@@H](C(c2ccccc2)c2ccccc2)NC1=O | – | 1195201, multidrug-resistant | – | 8 µg/mL
CC(C)CCCCCCCCC/C=C/C(=O)N[C@@H](CC(N)=O)C(=O)N[C@H]1CNC(=O)[C@@H]2CCCN2C(=O)[C@H](C(C)C)NC(=O)[C@@H](CN)NC(=O)CNC(=O)[C@H](CC(=O)O)NC(=O)CNC(=O)[C@H](CC(=O)O)NC(=O)[C@H](CC(=O)O)NC(=O)[C@H]2CCCCN2C1=O | broth microdilution | VISA LIM strain 2, Mueller-Hinton broth, Mg2+ 10 mg/L | 16 h, together with: Ca2+ 5 mM | 2 µg/mL
CC(C)C[C@@H](NC(=O)[C@@H](CCCNC(=N)N)NC(=O)[C@H](N)CCCNC(=N)N)C(=O)N[C@H](CC(C)C)C(=O)N[C@H](CCCNC(=N)N)C(=O)N[C@H](CCCCN)C(=O)N[C@H](CC(C)C)C(=O)N[C@H](CCCCN)C(=O)NCC(=O)N[C@H](CCCCN)C(=O)N[C@H](CCCCN)C(=O)N[C@H](CC(C)C)C(=O)N[C@H](Cc1ccc(O)cc1)C(=O)N[C@H](CC(C)C)C(=O)N[C@H](Cc1ccc(O)cc1)C(=O)N[C@H](Cc1ccccc1)C(=O)N[C@H](CCCCN)C(=O)N[C@H](CC(C)C)C(=O)N[C@H](CCC(N)=O)C(=O)N[C@H](CC(C)C)C(=O)N[C@H](CC(C)C)C(=O)N[C@H](CCCCN)C(=O)N[C@H](CCCCN)C(N)=O | – | CCARM 3090, methicillin-resistant, Mueller-Hinton broth | 24 h | 4 µM
CC[C@H](C)[C@H](NC(=O)[C@H](CCCCN)NC(=O)[C@@H](NC(=O)[C@@H](NC(=O)[C@H](CC(C)C)NC(=O)[C@H](CCCNC(=N)N)NC(=O)[C@@H](NC(=O)[C@H](CC(C)C)NC(=O)[C@H](CCCNC(=N)N)NC(=O)CNC(=O)[C@H](Cc1ccccc1)NC(=O)[C@@H](N)CCCNC(=N)N)[C@@H](C)CC)[C@@H](C)CC)C(C)C)C(=O)N[C@@H](C)C(=O)N[C@@H](CCCNC(=N)N)C(=O)N[C@@H](CCCNC(=N)N)C(=O)N[C@@H](C)C(=O)N[C@@H](Cc1c[nH]cn1)C(=O)N[C@@H](CCCNC(=N)N)C(=O)N[C@@H](C)C(=O)N[C@@H](CCCNC(=N)N)C(=O)N1CCC[C@H]1C(=O)N[C@@H](C)C(=O)N[C@H](C(=O)N[C@@H](CCCCN)C(=O)N[C@@H](C)C(=O)N[C@@H](C)C(=O)N[C@@H](CO)C(=O)N[C@@H](CC(N)=O)C(=O)N[C@H](C(=O)N[C@@H](C)C(=O)N[C@@H](CCC(=O)O)C(=O)N[C@@H](CC(C)C)C(=O)N[C@@H](C)C(=O)N[C@@H](Cc1c[nH]cn1)C(=O)NCC(=O)N[C@@H](CCC(=O)O)C(N)=O)C(C)C)C(C)C | broth microdilution | – | 18 h, 37 °C | 0.999 µM
CC(C)C[C@H](NC(=O)[C@H](CCCCN)NC(=O)[C@H](CC(C)C)NC(=O)[C@H](CCCCN)NC(=O)C1CCC=CCCC(NC(=O)[C@H](CCCCN)NC(=O)[C@H](CC(C)C)NC(=O)[C@H](CCCCN)NC(=O)[C@@H](N)CC(C)C)C(=O)N[C@@H](CCCCN)C(=O)N2CCC[C@@H]2C(=O)NCC(=O)N[C@@H](CCCCN)C(=O)N1)C(N)=O (stereo partly drawn) | broth microdilution | ATCC 29737, Mueller-Hinton broth | 18 h, 37 °C | 128 µM
CC[C@H](C)[C@@H]1NC(=O)[C@H](CO)NC(=O)C(C)(CCCCN)NC(=O)[C@@H]2CSSC[C@@H](C(=O)N[C@@H](Cc3ccc(O)cc3)C(N)=O)NC(=O)[C@H](CCCCN)NC(=O)[C@@H]3CSSC[C@H](NC(=O)[C@H](CCCNC(=N)N)NC(=O)C(C)(CC(C)C)NC(=O)[C@H](CC(=O)O)NC(=O)[C@H](CC(=O)O)NC(=O)[C@H](CCC(=O)O)NC(=O)[C@H](CC(N)=O)NC(=O)[C@H](Cc4c[nH]c5ccccc45)NC(=O)[C@@H]4CCCN4C(=O)CNC(=O)[C@H](CC(N)=O)NC(=O)[C@@H](NC(=O)CNC(=O)[C@H](Cc4ccccc4)NC(=O)CN)CSSC[C@H](NC(=O)[C@H](Cc4ccc(O)cc4)NC(=O)CNC(=O)CNC(=O)[C@H](CCCCN)NC(=O)[C@H](Cc4ccc(O)cc4)NC(=O)CNC(=O)[C@H](CCCCN)NC1=O)C(=O)N[C@@H](C)C(=O)N[C@@H](CCCCN)C(=O)NCC(=O)NCC(=O)N[C@@H](Cc1ccccc1)C(=O)N[C@@H](C(C)C)C(=O)N3)C(=O)N[C@@H](Cc1c[nH]cn1)C(=O)NC(C)(C)C(=O)N[C@@H](Cc1c[nH]cn1)C(=O)N2 (stereo partly drawn) | broth microdilution | ATCC 49775 | 18 h | 0.5 µM
CC[C@H](C)[C@H](NC(=O)[C@@H](CCCNC(=N)N)NC(=O)[C@H](CCCNC(=N)N)NC(=O)[C@@H]1CCCN1C(=O)[C@@H]1CCCN1C(=O)[C@H](CCCNC(=N)N)NC(=O)[C@@H]1CCCN1C(=O)[C@H](CCCNC(=N)N)NC(=O)[C@@H]1CCCN1C(=O)[C@H](CC(C)C)NC(=O)[C@H](Cc1ccc(O)cc1)NC(=O)[C@H](Cc1ccccc1)NC(=O)[C@@H]1CCCN1C(=O)[C@H](CCCCN)NC(=O)[C@H](CC(=O)O)NC(=O)[C@@H](N)C(C)C)C(=O)N[C@@H](Cc1ccc(O)cc1)C(=O)N[C@@H](CC(N)=O)C(=O)N[C@H](CCCNC(=N)N)C(N)=O | broth microdilution | DSM 6247 | 18 h, 37 °C, 25% MHB2 | > 128 µg/mL
CN[C@H](CC(C)C)C(=O)N[C@H]1C(=O)N[C@@H](CC(N)=O)C(=O)N[C@H]2C(=O)N[C@H]3C(=O)N[C@H](C(=O)N[C@H](C(=O)NCc4cn(CC(=O)N[C@H](C(=O)N[C@@H](CCN)C(=O)N[C@H]5CCNC(=O)[C@H]([C@@H](C)O)NC(=O)[C@H](CCN)NC(=O)[C@H](CCN)NC(=O)[C@H](CC(C)C)NC(=O)[C@@H](CC(C)C)NC(=O)[C@H](CCN)NC5=O)[C@@H](C)O)nn4)c4cc(O)cc(O)c4-c4cc3ccc4O)[C@H](O)c3ccc(c(Cl)c3)Oc3cc2cc(c3O[C@@H]2O[C@H](CO)[C@@H](O)[C@H](O)[C@H]2O[C@H]2C[C@](C)(N)[C@H](O)[C@H](C)O2)Oc2ccc(cc2Cl)[C@H]1O | – | NRS402 VISA | – | 6 µM
c1ccc(CCNC2CCCc3c2[nH]c2ccc(C4CCCCC4)cc32)cc1 (stereo not drawn) | broth microdilution | – | – | 4 µg/mL
